Results of several laboratories.
Lines come from different studies, so protocols differ. ± marks the error that the study gave.

CC(C)NC[C@@H](C(=O)N1CCN(c2ncnc3c2[C@H](C)C[C@H]3O)CC1)c1ccc(Cl)cc1  t1/2 (human, Moderate hepatic function, plasma; oral, 100 mg single dose, NCI classification, arithmetic mean): 76.6 h
[2H]C([2H])([2H])Oc1cc2c(cc1OC([2H])([2H])[2H])C1CC(=O)C(CC(C)C)CN1CC2 (stereo not shown)  dose-normalized AUC(0-t) (refers to: deuterated α-HTBZ; healthy human volunteers, plasma; oral, 6 mg single dose, standard meal): 14.5 ng·h/mL
CNC(=O)c1cccc(-c2ccc(O[C@H]3O[C@H](CO)[C@@H](O)[C@H](O)[C@@H]3O)c(C)c2)c1  effective oral dose (mouse, urine; oral, urine level above biofilm IC50): 50 mg/kg
C[C@@H]1CCC[C@H](n2cnc(-c3cc(Cl)ccc3-n3cc(Cl)nn3)cc2=O)c2cc(ccn2)-c2c(cnn2C(F)F)NC1=O  AUC(0-inf) (human, plasma; oral, 4 mg, single dose, fasted, healthy volunteers): 210 ng·h/mL
CC[C@H](C)[C@@H]1NC(=O)[C@H](Cc2ccc(O)cc2)NC(=O)[C@@H](N)CSSC[C@@H](C(=O)N2CCC[C@H]2C(=O)N[C@@H](CC(C)C)C(=O)NCC(N)=O)NC(=O)[C@H](CC(N)=O)NC(=O)[C@H](CCC(N)=O)NC1=O  AUC(0-t) (ELISA; knock-out male mice lacking compound, plasma; intraperitoneal, 12 µg total, total area from zero): 14900 ± 1930 pg·30 min/sample
CC(C)C[C@H](NC(=O)[C@H](CCCNC(=N)N)NC(=O)[C@H](CC(N)=O)NC(=O)[C@H](CC(=O)O)NC(=O)[C@H](CCCNC(=N)N)NC(=O)CNC(=O)CNC(=O)CNC(=S)Nc1ccc(C[C@H]2CN(CC(=O)O)CCN(CC(=O)O)CCN2CC(=O)O)cc1)C(=O)N[C@@H](CC(N)=O)C(=O)N[C@H](C(=O)NCC(=O)NCC(=O)N[C@H](C(=O)N[C@@H](Cc1ccc(O)cc1)C(=O)N[C@@H](Cc1ccccc1)C(=O)N[C@@H](CC(C)C)C(=O)N[C@H](C(=O)N[C@H](C(=O)N[C@@H](CCCNC(=N)N)C(=O)N[C@@H](CCC(N)=O)C(=O)O)[C@@H](C)O)[C@@H](C)O)[C@@H](C)O)C(C)C [fluorine-18 labelled]  intact parent radiotracer (radio-HPLC; mouse (HepG2 tumour-bearing), liver; intravenous, 5.55 MBq, 1 h): 93 ± 2.77%
Cl.Cl.NCCCn1c2c(c3ccc(N)cc3c1=O)C(=O)c1ccccc1-2  tissue concentration (Sprague-Dawley rat, female, mammary gland; oral, 40 mg/kg/day for 3 days, 3 h after last dose, pooled samples): 0.29 ± 0.006 µg/g
O=C(O)C(F)(F)c1ccccc1Nc1c(Cl)cc(F)cc1Cl  remaining compound (human liver microsomes; 30 min, together with: NADPH): 95 ± 5.1%
Oc1ccc(/C=C/c2ccccc2)cc1O  linear absorbance range (water; aggregation above range): ≥ 50 µM
COc1cc2c(cc1OC)CN(CCc1ccc(NC(=O)c3cc(OC)c(OC)cc3NC(=O)c3cnc4ccccc4c3)cc1)CC2  plasma concentration (Wistar rats, plasma; intravenous, 3 mg/kg, 3 h): 266 ng/mL
Oc1ccc(/C=C/c2cc(O)cc(O)c2)cc1  effective permeability (in situ intestinal perfusion; Sprague-Dawley rat, ileum; 25 µg/mL, 120 min, pH 7.4): 11.833 ± 0.000138 ×10⁻⁶ cm/s
acyl ghrelin (human)  brain/serum ratio (mouse, wild type, striatum; intravenous, 10 min): 6.52 µL/g
Cc1cc(Nc2ncc(Cl)c(Nc3ccccc3S(=O)(=O)C(C)C)n2)c(OC(C)C)cc1C1CCNCC1  Css,min (refers to: total drug; patients, plasma; oral, 750 or 450 mg/day, 23.7 h, geometric mean): 881 nM
O=C1N=C(N2CCOCC2)CN1c1ccc(Cl)cc1  Vd/F (female beagle dog, plasma; oral, 30 mg/kg, fasted): 0.646 L/kg
CON  blood concentration (human, whole blood on ice; 0 min before centrifugation): 10.5 ng/mL
CCCOc1ccc([C@H]2CNC(=O)N2c2ccc3[nH]cnc3c2)cc1  effective half-life (human volunteers fasted, plasma; oral solution, 50 mg single dose, day 1, geometric mean): 2.25 h
CC(=O)N[C@@H](CCCNC(=N)N)C(=O)N[C@@H](C)C(=O)N[C@@H](CC(=O)O)C(=O)N[C@@H](C)C(=O)N[C@@H](CCCNC(=N)N)C(=O)N[C@@H](C)C(=O)N[C@@H](CC(=O)O)C(=O)N[C@@H](C)C(=O)N[C@@H](CCCNC(=N)N)C(=O)N[C@@H](C)C(=O)N[C@@H](CC(=O)O)C(=O)N[C@@H](C)C(=O)N[C@@H](CCCNC(=N)N)C(=O)N[C@@H](C)C(=O)N[C@@H](CC(=O)O)C(=O)N[C@@H](C)C(N)=O  viscosity (rotational rheometry; 2% w/v aqueous solution; shear rate range 1-1000 s^-1): 1820 ± 57.6 Pa·s
CC(C)(C)OC[C@@H]1C(=O)NCCN1C(=O)C[C@H](N)Cc1cc(F)c(F)cc1F  AUC(tau) at steady state (human; 5 mg once daily, day 10): 105 ± 20.6 ng·h/mL
CCOc1ccc(Cc2cc([C@]34OC[C@](CO)(O3)[C@@H](O)[C@H](O)[C@H]4O)ccc2Cl)cc1  renal clearance (healthy human, normal renal function, urine and plasma; oral, 15 mg single dose, 0 to 96 h urine, geometric mean): 1.68 mL/min
C=C(C)[C@@H]1CC[C@]2(NCCN3CCS(=O)(=O)CC3)CC[C@]3(C)[C@H](CC[C@@H]4[C@@]5(C)CC=C(C6=CC[C@@](CF)(C(=O)O)CC6)C(C)(C)[C@@H]5CC[C@]43C)[C@@H]12  t1/2 (healthy human; oral, 400 mg, single ascending dose, geometric mean): 23.7 h
CC(=O)C=Cc1ccc(O)c(O)c1  AUC(0-t) (male C57BL/6J mice, brain; oral, 200 mg/kg, 0 to 12 h, low-fat diet): 0.096 ± 0.009 nmol·min/g
N=C(N)c1ccc(CNC(=O)[C@@H]2CCN2C(=O)[C@H](NCC(=O)O)C2CCCCC2)cc1  plasma concentration (Wistar rats male, plasma; intravenous, 0.001 mg/kg, 15 min, 10 min after TF): < 2.9 ng/mL
CCNc1[nH]c(=O)n(O)c(=O)c1C(=O)NCc1cccc(Cl)c1F  microsomal CLint (metabolic stability; human, liver microsomes): 850 µL/min/mg
des-acyl ghrelin (human)  brain/serum ratio (mouse, wild type, striatum; intravenous, 10 min): 5.67 µL/g
CC(=O)O[C@@]12CO[C@@H]1C[C@H](O)[C@@]1(C)C(=O)[C@H](O)C3=C(C)[C@@H](OC(=O)[C@H](O)[C@@H](NC(=O)OC(C)(C)C)c4ccccc4)C[C@@](O)([C@@H](OC(=O)c4ccccc4)[C@H]21)C3(C)C  C0 (female Sprague-Dawley rat, plasma; intravenous, 5 mg/kg): 123 ng/mL
CCCCOCCOc1ccc(-c2ccc3c(c2)/C=C(/C(=O)Nc2ccc([S@@+]([O-])Cc4cncn4CCC)cc2)CCCN3CC(C)C)cc1  effective half-life (human, mild hepatic impairment; oral, 150 mg): 13.7 h
Cn1c(-c2ccc(C(N)=O)cc2F)nnc1C(C)(C)Oc1c(F)cc(Cl)cc1F  Cmax range over subjects (young Japanese adults, plasma; oral, 20 mg single dose, day 1, high-dose multiple-dose study): 138 to 294 ng/mL
CCN(CC)CCNC(=O)c1ccc([18F])cc1  radiochemical purity (HPLC; saline; up to six hours, room temperature, 2.5 mCi/mL): > 95%
colistin methanesulfonate  conversion to colistin (0.9% NaCl; 48 h, below CMC): 60%
COc1cc2c(cc1OC)CN(CCc1ccc(NC(=O)c3cccc4c(=O)c5cccc(OC)c5[nH]c34)cc1)CC2  plasma exposure ratio (Sprague Dawley rat; intravenous infusion, dose not given, 4 h; baseline: infusion over published oral doses): 10
CCCC[C@@H]1NC(=O)[C@@H](NC(=O)[C@H](CCC(=O)O)NC(=O)CNC(=O)CN2CCN(CC(=O)O)CCN(CC(=O)O)CCN(CC(=O)O)CC2)CCCCNC(=O)C[C@@H](C(N)=O)NC(=O)[C@H](C(C)C)NC(=O)[C@@H]2CCCN2C(=O)[C@H](CCCNC(=N)N)NC(=O)CNC(=O)[C@H](Cc2c[nH]c3ccccc23)NC(=O)[C@H](CCCNC(=N)N)NC(=O)[C@@H](Cc2ccccc2)NC(=O)[C@H](Cc2c[nH]cn2)NC(=O)[C@H](CCC(=O)O)NC1=O [indium-111 labelled]  tissue uptake (C57 mice, B16/F10 lung metastatic melanoma, heart; intravenous, 0.037 MBq, 24 h): 0.03 ± 0.02 %ID/g
O=C(Nc1nc2cccc(-c3ccc(CN4CCS(=O)(=O)CC4)cc3)n2n1)C1CC1  terminal half-life (human male; oral, 25 mg twice daily, steady state, mean): 3.82 h
O=C(c1nc2n(n1)[C@H](c1ccccc1)C[C@@H]2F)C1CC1  concentration (human, plasma; oral, 25 mg, 24 h, single dose, fasted, healthy volunteers): 49.1 ng/mL
TFFYGGSRGRRNNFRTEEY-OH (C-acid)  brain uptake (in situ brain perfusion; peptide, male C57BL/6J mouse, right brain hemisphere; 5 min, 1.15 mL/min perfusion, 1 min wash; baseline: input): 0.053 ± 0.019%
O=C(O)COC[C@H]1CC[C@H](COC(=O)N(c2ccccc2)c2ccc(Cl)cc2)CC1  effective half-life (human; oral, 10 µg twice daily, steady state): 17.5 h
CN1CCN(c2ccc(Nc3ncc4cc(C#N)c(=O)n(C5CCCC5)c4n3)cc2)CC1  clearance (NIH Swiss nude mice, intracerebral U87 tumour, plasma; intravenous, 25 mg/kg, together with: gefitinib 200 mg/kg oral 1 h before): 65.6 mL/min/kg
CC[C@@H]1CN(C(=O)NCC(F)(F)F)C[C@@H]1c1cnc2cnc3[nH]ccc3n12  renal clearance (human, mild renal impairment, urine and plasma; oral, 15 mg single dose, extended release, fasted, geometric mean): 52.5 mL/min
CCOc1ccc(Cc2cc([C@@H]3S[C@H](CO)[C@@H](O)[C@H](O)[C@H]3O)c(OC)cc2C)cc1  AUC(0-inf) (human, plasma; oral, 5 mg, single dose, fasted, healthy volunteers): 1830 ng·h/mL
Cc1cc(C)c(C#N)c(SCC(=O)c2cccs2)n1  microsomal CLint (metabolic stability; human, liver microsomes; 0.5 µM, pH 7.4): 758 µL/min/mg
CC1=C2C[C@H]3[C@@H](CC[C@@H]4C[C@H](NS(C)(=O)=O)CC[C@@]43C)[C@@H]2CC[C@@]2(C1)O[C@@H]1C[C@H](C)CN[C@H]1[C@H]2C  Tmax (patients, plasma; oral, 60 mg daily, day 22, cycle 1): 5.08 h

Excerpt of the above:
CC[C@H](C)[C@@H]1NC(=O)[C@H](Cc2ccc(O)cc2)NC(=O)[C@@H](N)CSSC[C@@H](C(=O)N2CCC[C@H]2C(=O)N[C@@H](CC(C)C)C(=O)NCC(N)=O)NC(=O)[C@H](CC(N)=O)NC(=O)[C@H](CCC(N)=O)NC1=O  AUC(0-t) (ELISA; knock-out male mice lacking compound, plasma; intraperitoneal, 12 µg total, total area from zero): 14900 ± 1930 pg·30 min/sample
CC(C)C[C@H](NC(=O)[C@H](CCCNC(=N)N)NC(=O)[C@H](CC(N)=O)NC(=O)[C@H](CC(=O)O)NC(=O)[C@H](CCCNC(=N)N)NC(=O)CNC(=O)CNC(=O)CNC(=S)Nc1ccc(C[C@H]2CN(CC(=O)O)CCN(CC(=O)O)CCN2CC(=O)O)cc1)C(=O)N[C@@H](CC(N)=O)C(=O)N[C@H](C(=O)NCC(=O)NCC(=O)N[C@H](C(=O)N[C@@H](Cc1ccc(O)cc1)C(=O)N[C@@H](Cc1ccccc1)C(=O)N[C@@H](CC(C)C)C(=O)N[C@H](C(=O)N[C@H](C(=O)N[C@@H](CCCNC(=N)N)C(=O)N[C@@H](CCC(N)=O)C(=O)O)[C@@H](C)O)[C@@H](C)O)[C@@H](C)O)C(C)C [fluorine-18 labelled]  intact parent radiotracer (radio-HPLC; mouse (HepG2 tumour-bearing), liver; intravenous, 5.55 MBq, 1 h): 93 ± 2.77%
Cl.Cl.NCCCn1c2c(c3ccc(N)cc3c1=O)C(=O)c1ccccc1-2  tissue concentration (Sprague-Dawley rat, female, mammary gland; oral, 40 mg/kg/day for 3 days, 3 h after last dose, pooled samples): 0.29 ± 0.006 µg/g
O=C(O)C(F)(F)c1ccccc1Nc1c(Cl)cc(F)cc1Cl  remaining compound (human liver microsomes; 30 min, together with: NADPH): 95 ± 5.1%
